Experimental data from different studies.
Lines come from different studies, so protocols differ. ± marks the error that the study gave. In brackets after ≈: the same amount, converted by molar mass.
Organism: Staphylococcus aureus

SMILES | assay | test system | setting | how to read | endpoint | value
N[C@@H](Cc1cnc(C23CC4CC(CC(C4)C2)C3)[nH]1)C(=O)N[C@@H](Cc1c[nH]c2ccccc12)C(=O)N[C@@H](Cc1cnc(C23CC4CC(CC(C4)C2)C3)[nH]1)C(=O)NCc1ccccc1 |  |  |  |  | IC50 | 3.45 to 4.94 µg/mL
O=C(CCc1cc(O)c(O)c(O)c1)NCCCCCCCCCC[P+](c1ccccc1)(c1ccccc1)c1ccccc1 |  | XU212 | half MIC, 1 h |  | K+ release | 1.8 ± 0.21 µg/mL
FC(F)(F)c1cc(CSc2nnc(C34CC5CC(CC(C5)C3)C4)n2-c2ccccc2)cc(C(F)(F)F)c1 |  | IFO 3060 | 200 µg/disc, 24 h, 37 °C |  | inhibition zone diameter | 29 mm
CCC1(C)CCN(Cc2cc(N(C)C)c3c(c2O)C(=O)C2=C(O)[C@]4(O)C(=O)C(C(N)=O)=C(O)[C@@H](N(C)C)[C@@H]4C[C@@H]2C3)CC1 |  | MRSA 5, Tet M, 50% mouse serum |  |  | MIC | 8 µg/mL (≈ 13.4 µM)
NS(=O)(=O)c1ccc(-n2c(S)nc3ccccc3c2=O)cc1 | microbial growth, well diffusion | ATCC29213 | 500 µg/mL, 24 h |  | inhibition zone | 13 mm
O=C(O)c1ccc(-n2cc(/C=N/Nc3cccc(Cl)c3F)c(-c3ccc4ccccc4c3)n2)cc1 | microbial killing, broth dilution | MRSA |  |  | MBC | 12.5 µg/mL
CN[C@H](CC(C)C)C(=O)N[C@H]1C(=O)N[C@@H](CC(N)=O)C(=O)N[C@H]2C(=O)N[C@H]3C(=O)N[C@H](C(=O)N[C@H](C(=O)O)c4cc(O)cc(O)c4-c4cc3ccc4O)[C@H](O)c3ccc(c(Cl)c3)Oc3cc2cc(c3O[C@@H]2O[C@H](CO)[C@@H](O)[C@H](O)[C@H]2O[C@H]2C[C@](C)(NCc3ccc(C(=O)OCCCCCCN(Cc4ccccn4)Cc4ccccn4)cc3)[C@H](O)[C@H](C)O2)Oc2ccc(cc2Cl)[C@H]1O |  | ATCC 33591 MRSA, neutropenic mouse thigh infection, thigh tissue | ip, 12 mg/kg twice 12 h apart, 24 h post-infection |  | bacterial load | 4.4 log CFU/g
CNC(CC(C)C)C(=O)NC1C(=O)NC(CC(N)=O)C(=O)NC2C(=O)NC3C(=O)NC(C(=O)NC(C(=O)O)c4cc(O)cc(O)c4-c4cc3ccc4O)C(O)c3ccc(c(Cl)c3)Oc3cc2cc(c3OC2OC(CO)C(O)C(O)C2OC2CC(C)(NC(=O)CCCCCCCC[n+]3ccccc3)C(O)C(C)O2)Oc2ccc(cc2Cl)C1O (centres unmarked) | agar dilution | MRSA4 |  | reference: vancomycin, higher = more active | MIC fold improvement | 4 fold
CCCCCCCCCCCCCCCCCC(=O)N[C@@H](CCCCN)C(=O)N[C@@H](CCCCN)C(=O)N(CCCCN)CC(=O)N[C@@H](CCCCN)C(=O)N[C@@H](CCCCN)C(N)=O |  | MRSA JE2, Galleria mellonella larvae | 50 mg/kg, 4 d |  | survival | 90%
CCCCCC1CC2CCCC3CC(C)N=C(N1)N32 (centres unmarked) | bacterial growth | ATCC 29213 |  |  | IC50 | 4.44 µM
CCCCCCCCCCCCCCCC(=O)N[C@@H](CCN)C(=O)N[C@H](C(=O)N[C@@H](CCN)C(=O)N[C@H]1CCNC(=O)[C@H]([C@@H](C)O)NC(=O)[C@H](CCN)NC(=O)[C@H](CCN)NC(=O)[C@H](CC(C)C)NC(=O)[C@@H](CC(C)C)NC(=O)[C@H](CCN)NC1=O)[C@@H](C)O |  | MRSA, neutropenic mice, thigh infection, thigh | iv, 5 mg/kg twice, 12 h apart |  | CFU reduction | 4 log10 CFU
CN(C)c1cc(CNCc2ccccc2)c(O)c2c1C[C@H]1C[C@H]3[C@H](N(C)C)C(O)=C(C(N)=O)C(=O)[C@@]3(O)C(O)=C1C2=O |  | MRSA 5 tetM, mouse thigh infection model | sc, 20 mg/kg, 24 h | reference: untreated control | log10 CFU reduction | < 2 log10
O=[N+]([O-])c1ccc2c(c1)C=[N+]1N3C(=[O+][Cu-2]1([Cl])[O]2)c1ccccc1NC3c1cc([N+](=O)[O-])ccc1O (centres unmarked) | mature biofilm, MTT | ATCC 29213 | 0.5 × MIC |  | reduction of biofilm viability | 66.4 ± 10.6%
CCCCCCCCCCCCCC(=O)N[C@@H](CCCCN)C(=O)N[C@@H](CCCCN)C(N)=O | XTT | UAMS-1 | 6.25 µM |  | biofilm disruption | 93%
CC(=NNC(=N)N)c1nnn(-c2ccc(C#CC3(O)CCCCC3)cc2)c1C |  | ATCC 43300 MRSA |  |  | MBC | 15.6 µg/mL
N=C(N)NCCC[C@H](NC(=O)[C@H](Cc1c[nH]c2ccccc12)NC(=O)[C@H](CCC(N)=O)NC(=O)[C@H](Cc1c[nH]c2ccccc12)NC(=O)[C@H](CCCNC(=N)N)NC(=O)[C@@H](N)CCCNC(=N)N)C(=O)NCCCC[C@H](NC(=O)[C@H](CCCNC(=N)N)NC(=O)[C@H](Cc1c[nH]c2ccccc12)NC(=O)[C@H](CCC(N)=O)NC(=O)[C@H](Cc1c[nH]c2ccccc12)NC(=O)[C@H](CCCNC(=N)N)NC(=O)[C@@H](N)CCCNC(=N)N)C(=O)NCCCCCC(=O)N[C@@H](CSSC[C@H](NC(=O)CCCCCNC(=O)[C@H](CCCCNC(=O)[C@H](CCCNC(=N)N)NC(=O)[C@H](Cc1c[nH]c2ccccc12)NC(=O)[C@H](CCC(N)=O)NC(=O)[C@H](Cc1c[nH]c2ccccc12)NC(=O)[C@H](CCCNC(=N)N)NC(=O)[C@@H](N)CCCNC(=N)N)NC(=O)[C@H](CCCNC(=N)N)NC(=O)[C@H](Cc1c[nH]c2ccccc12)NC(=O)[C@H](CCC(N)=O)NC(=O)[C@H](Cc1c[nH]c2ccccc12)NC(=O)[C@H](CCCNC(=N)N)NC(=O)[C@@H](N)CCCNC(=N)N)C(N)=O)C(N)=O | time-kill | ATCC 25923 |  |  | time to bactericidal effect | ≤ 23 h
CC[C@H](C)[C@H](N)C(=O)N[C@@H](CC(C)C)C(=O)N1CCC[C@H]1C(=O)N[C@@H](Cc1c[nH]c2ccccc12)C(=O)N[C@@H](CCCCN)C(=O)N[C@@H](Cc1c[nH]c2ccccc12)C(=O)N1CCC[C@H]1C(=O)N[C@@H](Cc1c[nH]c2ccccc12)C(=O)N[C@@H](Cc1c[nH]c2ccccc12)C(=O)N1CCC[C@H]1C(=O)N[C@@H](Cc1c[nH]c2ccccc12)C(=O)N[C@@H](CCCNC(=N)N)C(=O)N[C@@H](CCCNC(=N)N)C(N)=O | bactericidal activity | ATCC 29213, 5 mM HEPES-glucose buffer | 10 µM, 2 h, pH 7.4, 37 °C |  | log reduction viability | > 5 log
CNCc1cc(N(C)C)c2c(c1O)C(=O)C1=C(O)[C@]3(O)C(=O)C(C(N)=O)=C(O)[C@@H](N(C)C)[C@@H]3C[C@@H]1C2 |  | RN4250, Tet K efflux |  |  | MIC | 8 µg/mL (≈ 16 µM)
COc1c2c(cc3oc(=O)cc(-c4ccc(O)cc4)c13)C(=O)c1cc(C)cc(O)c1C2=O | microbial growth, disc diffusion | MTCC96 | 100 µg/disc |  | inhibition zone | 8 mm
CC(C)C[C@H](NC(=O)[C@H](CC(N)=O)NC(=O)[C@H](CCCNC(=N)N)NC(=O)[C@@H](CC(C)C)NC(=O)[C@H](Cc1ccc(-c2ccccc2)cc1)NC(=O)[C@H](CC(=O)O)NC(=O)[C@H](CCCCN)NC(=O)[C@@H](CC(C)C)NC(=O)[C@H](CCCN)NC(=O)[C@H](CCC(N)=O)NC(=O)[C@@H](NC(=O)[C@@H](CC(C)C)NC(=O)[C@H](CCCNC(=N)N)NC(=O)[C@H](CCCCN)NC(=O)[C@H](Cc1ccc(-c2ccccc2)cc1)NC(=O)CN)C(C)C)C(=O)N[C@H](C(N)=O)C(C)C | XTT | USA300 | 24 h, 37 °C |  | biofilm inhibitory concentration | 12.5 µM
N=C(N)NCCC[C@@H]1NC(=O)[C@H](CCCNC(=N)N)NC(=O)[C@H](CCCNC(=N)N)NC(=O)[C@H](Cc2ccc3ccccc3c2)NC(=O)[C@H](Cc2c[nH]c3ccccc23)NC(=O)[C@H](Cc2ccc3ccccc3c2)NC(=O)[C@H](CCCNC(=N)N)NC1=O | XTT | MRSA ATCC BAA-1556 | MIC | reference: untreated | biofilm reduction | 40 to 45%
CCCCCCCCCC1CC2CCC3CC(CCCCCCCCC)NC(=N1)N23 (centres unmarked) | bacterial growth | MRSA ATCC 33591 |  |  | IC50 | 2.44 µM
CN(C)c1cc(CN2CCc3ccccc3C2)c(O)c2c1C[C@H]1C[C@H]3[C@H](N(C)C)C(O)=C(C(N)=O)C(=O)[C@@]3(O)C(O)=C1C2=O |  | RN4250, Tet K efflux |  |  | MIC | 0.5 µg/mL (≈ 0.83 µM)
COc1cc(OC)c2c(c1)C(=O)c1cc3oc(=O)cc(C)c3c(O)c1C2=O |  | MTCC 96 | 100 µg/disc |  | zone of inhibition | < 8 mm
C=C(C)C(=O)NCCCCCCCCCCOCc1cn(CCCCCCCCCCNC(=O)C(=C)C)n[n+]1C | microbial growth, absorbance |  | 24 h |  | IC50 | 21.5 µM
O=C(Oc1cccccc1=O)c1ccc(Cl)cc1 | time-kill | ATCC 29213 | 1 x MIC80, 24 h |  | reduction in viable count | 1 log10 CFU
CC(C)C[C@H](NC(=O)[C@H](CC(N)=O)NC(=O)[C@H](CCCNC(=N)N)NC(=O)[C@@H](CC(C)C)NC(=O)[C@H](Cc1ccc(-c2ccccc2)cc1)NC(=O)[C@H](CC(=O)O)NC(=O)[C@H](CCCCN)NC(=O)[C@@H](CC(C)C)NC(=O)[C@H](CCCNC(=N)N)NC(=O)[C@H](CCC(N)=O)NC(=O)[C@@H](NC(=O)[C@@H](CC(C)C)NC(=O)[C@H](CCCNC(=N)N)NC(=O)[C@H](CCCCN)NC(=O)[C@H](Cc1ccc(-c2ccccc2)cc1)NC(=O)CN)C(C)C)C(=O)N[C@H](C(N)=O)C(C)C |  | USA300 LAC, Galleria mellonella larvae | 64 mg/kg, day 5, dosed 2 h before infection |  | survival | 83%
CNC(CC(C)C)C(=O)NC1C(=O)NC(CC(N)=O)C(=O)NC2C(=O)NC3C(=O)NC(C(=O)NC(C(=O)O)c4cc(O)cc(O)c4-c4cc3ccc4O)C(O)c3ccc(c(Cl)c3)Oc3cc2cc(c3OC2OC(CO)C(O)C(O)C2OC2CC(C)(NC(=O)CCCCCCCCC[N+](C)(C)C)C(O)C(C)O2)Oc2ccc(cc2Cl)C1O (centres unmarked) | agar dilution | MRSA4 |  | reference: vancomycin, higher = more active | MIC fold improvement | 8 fold
Oc1c(Br)cc(Br)c2nc3cc(F)ccc3nc12 | Calgary biofilm device | MRSA ATCC BAA-44, biofilm-released planktonic cells | 24 h, 37 °C |  | MBC | 50 µM

Repeated from above:
SMILES | assay | test system | setting | how to read | endpoint | value
CC(C)C[C@H](NC(=O)[C@H](CC(N)=O)NC(=O)[C@H](CCCNC(=N)N)NC(=O)[C@@H](CC(C)C)NC(=O)[C@H](Cc1ccc(-c2ccccc2)cc1)NC(=O)[C@H](CC(=O)O)NC(=O)[C@H](CCCCN)NC(=O)[C@@H](CC(C)C)NC(=O)[C@H](CCCN)NC(=O)[C@H](CCC(N)=O)NC(=O)[C@@H](NC(=O)[C@@H](CC(C)C)NC(=O)[C@H](CCCNC(=N)N)NC(=O)[C@H](CCCCN)NC(=O)[C@H](Cc1ccc(-c2ccccc2)cc1)NC(=O)CN)C(C)C)C(=O)N[C@H](C(N)=O)C(C)C | XTT | USA300 | 24 h, 37 °C |  | biofilm inhibitory concentration | 12.5 µM
CNC(CC(C)C)C(=O)NC1C(=O)NC(CC(N)=O)C(=O)NC2C(=O)NC3C(=O)NC(C(=O)NC(C(=O)O)c4cc(O)cc(O)c4-c4cc3ccc4O)C(O)c3ccc(c(Cl)c3)Oc3cc2cc(c3OC2OC(CO)C(O)C(O)C2OC2CC(C)(NC(=O)CCCCCCCCC[N+](C)(C)C)C(O)C(C)O2)Oc2ccc(cc2Cl)C1O (centres unmarked) | agar dilution | MRSA4 |  | reference: vancomycin, higher = more active | MIC fold improvement | 8 fold
CC(C)C[C@H](NC(=O)[C@H](CC(N)=O)NC(=O)[C@H](CCCNC(=N)N)NC(=O)[C@@H](CC(C)C)NC(=O)[C@H](Cc1ccc(-c2ccccc2)cc1)NC(=O)[C@H](CC(=O)O)NC(=O)[C@H](CCCCN)NC(=O)[C@@H](CC(C)C)NC(=O)[C@H](CCCNC(=N)N)NC(=O)[C@H](CCC(N)=O)NC(=O)[C@@H](NC(=O)[C@@H](CC(C)C)NC(=O)[C@H](CCCNC(=N)N)NC(=O)[C@H](CCCCN)NC(=O)[C@H](Cc1ccc(-c2ccccc2)cc1)NC(=O)CN)C(C)C)C(=O)N[C@H](C(N)=O)C(C)C |  | USA300 LAC, Galleria mellonella larvae | 64 mg/kg, day 5, dosed 2 h before infection |  | survival | 83%
